# Assay results from different studies.
# A part holds a random share of what one study measured.

# Sample 1 — technique: universal PBM; molecule type: double-stranded DNA, one strand shown; medium: in vitro; tested at: not given; reading: higher = stronger binding
# Target: Sal-like protein 4, full length isoform B (SALL4, Homo sapiens, UniProt Q9UJQ4-2, residues 1-616)
# Setting: 8-mer, flanks averaged, mean of replicates
Oligonucleotide,E-score
CTAGTTAA,0.212
TAGTGTGA,0.125
TAAAGCGA,0.108
AATGAGCG,0.104
AAGCTTAT,0.133
AGGACTTC,-0.137
CCACACTA,0.123
ACCGAGCG,-0.198
GTAGGTCA,-0.0754
TCTATCCA,0.0755
CTCTAGTC,-0.191
AGAAGCGC,-0.116
AAAAATCC,0.116
CCGACAAA,0.0883
ACATGCAC,0.106
ACACCAAG,0.0842
CCAGTATA,0.108
CGTAACAG,-0.0309

# Sample 2 — technique: RNA Bind-n-Seq; molecule type: RNA; medium: in vitro; tested at: 365 nM; reference: no-protein control; reading: higher = stronger binding
# Target: RNA binding protein fox-1 homolog 2, RRM domain, GST-SBP tag (RBFOX2, Homo sapiens, UniProt O43251-10, residues 100-194)
# Setting: natural RNA segment, single round, ends assumed
# Constant ends, left off below: GGGAGUUCUACAGUCCGACGAUC … UGGAAUUCUCGGGUGCCAA
Oligonucleotide,RBNS enrichment (R)
CUGUGAUGGGUUCUGUUUACCUUUUGCAACAUUUUAUAGCUUGUUUAGUGACUAGUGUGUAGUGAGUCACGAUCAAGGCAUCCUUCAGCUUAGCAUUUUCAGUACUCACU,1.24
CCUCACAGACAUUCCCGUCCUUUCUGGUUGGUGUUGACUGUGUUUCAGCAUCACUCUACCCUCCCAUGUCCUUAGCAUUGCUGUGCGUGUUUCCAGGCACUUAGGACACC,0.762
GCAAAAGGAGAAAGAUAAAAUACAGAAGACUGGCCCCAGAGAGACCUCAGAUCAGUAUUGUGCAUUGUAGUCUACCUGCAUGUGAUCUAUGUUGACAUUUCGGGGAUAUU,1.23
UUUCAUUUUUUACAACUGGACCUCCACCCACAACUUCCCCAGCCCAGCUGGGCUCCCUUUGUCAGAGUCAAUGGAUGAUGCUUCCAGGACAAAUCGGCUUCCUCUCCCCA,0.853
GUUCCUGUGUCAUCUUCACAUCUAGCAGAGCACGGAUGUGUUUGCAUGCUGUGCUCUUGGAGCUUGUCCUGUCUUCUGGAAGCCCUGGACAAGGCGUGUGAAGGCUUCCC,1.06
UAACAUUAAGAUGAGCCCUAAUAUGUAAGAUUUUCCUCUGGAAUGGAUGUGAGAAAUGUAAAUUUUAUAACAGCAGUAUUUAUCCUGGUUUAAUUCUAAUACGAUGUCAU,1
AGGGAGUACCUUUUUUUCUAGUUGAGAAUUAAUAAUGGUCCAUCUCUUUUGAUCAUAUCAAGCUAGGAUAGAAGGGGGGCUAUUUUAAAUGUCAAGGUCAGCAGUGUUAC,0.859
AUAAAAAAAAAUGGGAGAUUGUUUUCAGGAAUUCAGGGAUGAAAAGAAAGAAUAAUUUCCAUUAAGUAGAAUUCCAGUUGUCUUUCUGUUUCUAAAACACAGAACUUACA,0.636

# Sample 3 — technique: RNA Bind-n-Seq; molecule type: RNA; medium: in vitro; tested at: 1 µM; setting: whole 134-nt RNA, ends assumed; added: 150 mM KCl; reference: input library; reading: higher = stronger binding
# Target: Ras GTPase-activating protein-binding protein 1, C-terminal RGG region (G3BP1, Homo sapiens, UniProt Q13283)
# UniProt Q13283, sequence (whole entry, looked up): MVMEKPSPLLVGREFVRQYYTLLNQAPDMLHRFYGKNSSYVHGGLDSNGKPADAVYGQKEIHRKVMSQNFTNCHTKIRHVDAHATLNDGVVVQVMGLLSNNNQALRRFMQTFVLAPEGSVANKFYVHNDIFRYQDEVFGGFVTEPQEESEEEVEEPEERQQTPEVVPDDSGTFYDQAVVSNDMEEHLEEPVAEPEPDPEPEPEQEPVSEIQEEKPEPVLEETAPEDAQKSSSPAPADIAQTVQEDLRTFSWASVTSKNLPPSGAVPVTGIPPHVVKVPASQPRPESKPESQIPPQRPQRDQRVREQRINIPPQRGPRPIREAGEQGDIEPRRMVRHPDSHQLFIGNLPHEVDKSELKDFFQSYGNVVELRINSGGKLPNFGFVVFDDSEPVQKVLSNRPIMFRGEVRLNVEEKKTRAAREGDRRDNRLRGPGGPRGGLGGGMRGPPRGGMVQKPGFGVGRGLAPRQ
# Constant ends, left off below: GGGAGUUCUACAGUCCGACGAUC … UGGAAUUCUCGGGUGUCAAGG
Oligonucleotide,log2 enrichment
CCUGUGCUACACAUCGUAUGUACCGAAUCGGCCCCCCCGGCCCCCCCGGGCCCCCCCGGGGAAAGUAUUAUGUUACGCCGUUCGGAUCUG,-1.75
CUGUGCUACACAUCGUAUGUACCGAAUCGGAAAAAAAGGGAAAAAAAGGGAAAAAAAGGGGAAAGUAUUAUGUUACGCCGUUCGGAUCUG,-1.51
GCAGGAAGUAAAAGCAAAUGGAAAUGCUUCGGAUAGUGGCAGGGGUGGGGGUUGCUAAGGAAAGGGUGGGAUGGGAGUGGGUAAAGAGUU,1.69
CCUCAAGUCCUGUGCUACACAUCGUAUGUACCGAAUCGGGCGGGGCGGGCGGGAAAGUAUUAUGUUACGCCGUUCGGAUCUGCACUUCCA,2.32
UGGGAGGUGGAUUUUGUUUAUUUUUUUAGGUCAUUUCCAGGGGUGGGAAUUUUUUUUUAAUAUGUGUCAUGAAUAAAGUUGUUUUUGAAA,3.58
CUCAAGUCCUGUGCUACACAUCGUAUGUACCGAAUCGGGGAAGGAAGGGAAGGGAAAGUAUUAUGUUACGCCGUUCGGAUCUGCACUUCC,-0.879
CACAGACAACACGCACCCACACAGACACAGAGGGAAGGGGUUGGGAUGGGGACAGGGUGCACAGAAGGGCGGGGUAGGACCCCAGCCCCU,0.0781
CAAGUCCUGUGCUACACAUCGUAUGUACCGAAUCGGUUUUUGGUUUUUGGAAAGGAAAGUAUUAUGUUACGCCGUUCGGAUCUGCACUUC,-1.59
AGUCCUGUGCUACACAUCGUAUGUACCGAAUCGGGAGGGUUUUUUUGGGAAAAAGGGAAAGUAUUAUGUUACGCCGUUCGGAUCUGCACU,-0.515

# Sample 4 — technique: protein-binding microarray; molecule type: double-stranded DNA, one strand shown; medium: in vitro; tested at: 2540 nM top; setting: 60-bp whole probe; added: salmon DNA 0.4 mg/ml; reference: random background probes; reading: higher = stronger binding; constant ends, left off below: GCCTAGCAC … GTCTTGATTCGCTTGACGCTGCTG
# Target: Interferon regulatory factor 3, full length, phosphomimetic (IRF3, Homo sapiens, UniProt Q14653, residues 1-427, S386D/S396D/S398D/S402D/T404D/S405D)
# Target sequence (chain): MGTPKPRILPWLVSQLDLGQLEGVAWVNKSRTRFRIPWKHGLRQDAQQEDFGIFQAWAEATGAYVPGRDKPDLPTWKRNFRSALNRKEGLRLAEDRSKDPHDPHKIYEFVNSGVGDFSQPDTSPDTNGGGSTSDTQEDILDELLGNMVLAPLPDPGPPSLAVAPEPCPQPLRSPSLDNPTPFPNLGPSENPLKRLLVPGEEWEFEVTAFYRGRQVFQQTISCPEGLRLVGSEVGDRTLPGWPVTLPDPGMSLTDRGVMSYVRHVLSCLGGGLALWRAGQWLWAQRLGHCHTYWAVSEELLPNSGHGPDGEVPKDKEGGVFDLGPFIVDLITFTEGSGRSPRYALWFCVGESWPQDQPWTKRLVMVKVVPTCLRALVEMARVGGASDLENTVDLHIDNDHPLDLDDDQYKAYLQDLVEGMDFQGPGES
Oligonucleotide,fitted relative affinity [z-score]
CACTTTGGATAACCAAAAACGTGCTAG,1.11
CTGTTTTTGCTTTCTTTTTGGTGCTAG,2.9
TTAGAACTGGGACTGGATTAGTGCTAG,-0.706
TTCGGACTGGGTTTCGGTTAGTGCTAG,2.86
GACGATTTCAGTTTCGGGACGTGCTAG,5
GACGATTCCAGTTTCGAGCCGTGCTAG,2.13
TTCGGTCTCGGACTGGGTTAGTGCTAG,0.411
GACGCACTGGGTTTCGGGACGTGCTAG,1.17
TCAGTTGTAGGTTTTCTGACTGTGCTA,0.311
TTAGGACTGGACTTTCGGTTTGTGCTA,2.7
GTAGATATCAGTCTCGATTAGTGCTAG,1.39
GACGGTTTCGACTATCGGGATGTGCTA,2.9
GACGGTCTCCTACTGATGACGTGCTAG,1.02
GCGCTTCTCGAGTGCCGGCTGGTGCTA,0.108
TTAGATTTCGGGACGGGATTAGTGCTA,0.882
TTTGGTTTCCTACTGCTTTAGTGCTAG,6.01
GACGGACTGCTACGGCTGACGTGCTAG,-0.651
TTAGGTTTCCTTTCCCTTTCGTGCTAG,10.7
ATAGGACTGGACACTGGGTTAGTGCTA,-0.626

# Repeated from above (sample 4):
Oligonucleotide,fitted relative affinity [z-score]
GACGATTCCAGTTTCGAGCCGTGCTAG,2.13
TTCGGTCTCGGACTGGGTTAGTGCTAG,0.411
GACGCACTGGGTTTCGGGACGTGCTAG,1.17
